Measured values pooled from the literature.
Protocols differ between the studies behind these lines. pEC50: −log10 of the molar value.
Organism: Cryptosporidium parvum

| Structure (SMILES) | test | test system | conditions | pEC50 |
| --- | --- | --- | --- | --- |
| Cc1ccc(C(=O)c2cc(O)c(O)c([N+](=O)[O-])c2)cc1 | parasite growth, qRT-PCR | HCT-8 | 44 h | < 4.00 |
| O=C(Cc1ccc(Br)c(F)c1)N1CCN(c2ccc3nncn3n2)CC1 | high-content imaging | HCT-8 |  | > 6.00 |
| COc1ccc(NC(=O)N2CCCCN3C[C@H](c4ccc(C#Cc5ccccc5)cc4)[C@@H]3C2)cc1 | parasite growth | Iowa (Sterling) |  | 7.51 |
| COc1ccc(CNc2nc(-c3ccc(C(=O)O)cc3)nc3sc4ccccc4c23)cc1Cl | parasite growth, immunofluorescence microscopy | HCT-8, Iowa | 48 h post infection, compound added at 3 h | 6.00 |
| COc1ccc(NC(=O)N2CCCCN3[C@H](COCCC(=O)O)[C@H](c4ccc(C#Cc5ccccc5)cc4)[C@@H]3C2)cc1 | growth inhibition | WSU field isolate |  | 8.05 |
| O=C(Cc1ccc(Cl)c(F)c1)N1CCN(c2ccc3nncn3n2)CC1 | high-content imaging | HCT-8 |  | > 6.00 |
| COc1ccc(NC(=O)N2CCCCN3[C@H](CN(C)S(C)(=O)=O)[C@H](c4ccc(C#Cc5ccccc5)cc4)[C@@H]3C2)cc1 | parasite growth, high-content microscopy | Iowa (Bunch Grass Farm) | 10% FBS | 8.15 |
| O=C1NC(=O)/C(=C/c2ccc3ncnc(N4CCCCC4)c3n2)S1 | parasite growth, immunofluorescence microscopy | HCT-8, Iowa | 48 h post infection, compound added at 3 h | 6.80 |
| COc1cccc(CC(=O)N2CCN(c3ccc4nncn4n3)CC2)c1 | high-content imaging | HCT-8 |  | 4.77 |

For quick reference, copied from above:
| Structure (SMILES) | test | test system | conditions | pEC50 |
| --- | --- | --- | --- | --- |
| COc1ccc(NC(=O)N2CCCCN3[C@H](CN(C)S(C)(=O)=O)[C@H](c4ccc(C#Cc5ccccc5)cc4)[C@@H]3C2)cc1 | parasite growth, high-content microscopy | Iowa (Bunch Grass Farm) | 10% FBS | 8.15 |
